Assay results pooled from the literature.
Numbered parts are unrelated; each lists some results of a single study. Changes are numbered by the printed parent chain.

Set 1 — target: CCNF, cyclin fold, Cln2 fusion (human); technique: yeast growth competition, sequencing; matrix: yeast; notes: strong parent motif; relative to: not given; direction: higher = stronger binding
Starting sequence: SLBP docking peptide (human); ARYKRKLLINDFG
Variant | normalised enrichment score
ARYKRKLLINPFG [D11P] | 2.77
ARYKRKSLINDFG [L7S] | 0.762
KRYKRKLLINDFG [A1K] | 1.27
ARYKRKLLCNDFG [I9C] | 1.48

Set 2 — technique: aptamer microarray, sandwich; molecule type: DNA with 2'F-ANA; matrix: in vitro; tested at: 200 nM; added: Cy3 exosite-II aptamer, 400 nM; direction: higher = stronger binding; strand: GGTTGGTGTGGTTGG
Target: Prothrombin, mature alpha-thrombin (F2, Homo sapiens, UniProt P00734)
Notes: whole 15-mer aptamer, many near background
Modification | mean fluorescence intensity
2'F-ANA at 1 5 7 8 9 10 11 | 46.5 a.u.
2'F-ANA at 1 2 3 4 5 6 7 8 9 10 13 14 | 54.9 a.u.
2'F-ANA at 1 2 7 9 13 14 | 59.9 a.u.
2'F-ANA at 1 3 8 9 10 14 | 56.8 a.u.
2'F-ANA at 5 7 9 11 12 15 | 114 a.u.

Set 3 — technique: Sort-seq; refers to: YFP reporter; matrix: E. coli; notes: PhoQ-PhoP variant library; added: 10 µM Mg2+; relative to: high Mg2+ state; direction: higher = stronger signaling
Molecule: PhoQ, residues 284 288 289 292 302 303 TTSMTC
target | fold induction
PhoP, residues 12 14 15 18 19 SHWTV (Escherichia coli, UniProt P23836) | 0.945
PhoP, residues 12 14 15 18 19 STHWV (Escherichia coli, UniProt P23836) | 17
PhoP, residues 12 14 15 18 19 QYCSL (Escherichia coli, UniProt P23836) | 2.33

Set 4 — technique: competition protein-binding microarray; molecule type: double-stranded DNA, one strand shown; matrix: in vitro; tested at: 2 µM; added: Cbf1 competitor, 0.05 µM; direction: higher = stronger binding
Target: Phosphate system positive regulatory protein PHO4, full length, GST-tagged (PHO4, Saccharomyces cerevisiae, UniProt P07270, residues 1-312)
Notes: whole 60-bp probe, lowest competitor level
Construct (chain): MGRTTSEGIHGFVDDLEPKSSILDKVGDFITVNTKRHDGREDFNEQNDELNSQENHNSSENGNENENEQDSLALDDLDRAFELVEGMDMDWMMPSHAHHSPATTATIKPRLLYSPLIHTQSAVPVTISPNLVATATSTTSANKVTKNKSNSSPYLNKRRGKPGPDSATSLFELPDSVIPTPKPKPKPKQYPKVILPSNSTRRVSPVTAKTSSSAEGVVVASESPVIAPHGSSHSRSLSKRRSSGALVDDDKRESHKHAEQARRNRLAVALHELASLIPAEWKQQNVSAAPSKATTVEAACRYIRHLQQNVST
Strand | fluorescence intensity
CACATCCGGGTTCGTCACACGCGAAAGGCTTCTCAAGTCTTGATTCGCTTGACGCTGCTG | 5510 a.u.
CATCAGCCTTCCATGCCCGTGCAATTACGGCTCCTCGTCTTGATTCGCTTGACGCTGCTG | 7190 a.u.
AGAGCAAATAGTTGAAAGGTGTGCCATAAGAAGGTGGTCTTGATTCGCTTGACGCTGCTG | 6980 a.u.
CGTCCTAGTGATTGCTAGGTGGGTGCCATGAGGAAGGTCTTGATTCGCTTGACGCTGCTG | 6440 a.u.

For quick reference, copied from above (set 2):
Modification | mean fluorescence intensity
2'F-ANA at 1 2 7 9 13 14 | 59.9 a.u.
